Measured values from different studies.
Compare with care: the assays were run in different laboratories. Values joined by “and” are separate records of one study, mostly repeats; a detail may differ. Numbers after ± are the reported error.
U2AF2: U2AF2 148-342 (Homo sapiens, UniProt P26368)
Sequence of UniProt P26368 (whole entry, looked up): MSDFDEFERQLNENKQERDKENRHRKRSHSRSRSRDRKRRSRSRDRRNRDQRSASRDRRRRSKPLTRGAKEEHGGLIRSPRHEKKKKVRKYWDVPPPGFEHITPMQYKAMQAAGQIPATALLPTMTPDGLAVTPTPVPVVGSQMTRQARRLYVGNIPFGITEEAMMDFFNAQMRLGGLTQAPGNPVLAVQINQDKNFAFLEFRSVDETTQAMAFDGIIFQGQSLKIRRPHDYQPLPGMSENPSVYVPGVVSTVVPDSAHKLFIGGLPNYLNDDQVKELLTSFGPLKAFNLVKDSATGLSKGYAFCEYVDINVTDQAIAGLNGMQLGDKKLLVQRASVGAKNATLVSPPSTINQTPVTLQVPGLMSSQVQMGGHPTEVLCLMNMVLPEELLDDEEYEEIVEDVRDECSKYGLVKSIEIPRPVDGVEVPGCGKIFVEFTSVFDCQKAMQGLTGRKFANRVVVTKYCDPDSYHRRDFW
T1: itself; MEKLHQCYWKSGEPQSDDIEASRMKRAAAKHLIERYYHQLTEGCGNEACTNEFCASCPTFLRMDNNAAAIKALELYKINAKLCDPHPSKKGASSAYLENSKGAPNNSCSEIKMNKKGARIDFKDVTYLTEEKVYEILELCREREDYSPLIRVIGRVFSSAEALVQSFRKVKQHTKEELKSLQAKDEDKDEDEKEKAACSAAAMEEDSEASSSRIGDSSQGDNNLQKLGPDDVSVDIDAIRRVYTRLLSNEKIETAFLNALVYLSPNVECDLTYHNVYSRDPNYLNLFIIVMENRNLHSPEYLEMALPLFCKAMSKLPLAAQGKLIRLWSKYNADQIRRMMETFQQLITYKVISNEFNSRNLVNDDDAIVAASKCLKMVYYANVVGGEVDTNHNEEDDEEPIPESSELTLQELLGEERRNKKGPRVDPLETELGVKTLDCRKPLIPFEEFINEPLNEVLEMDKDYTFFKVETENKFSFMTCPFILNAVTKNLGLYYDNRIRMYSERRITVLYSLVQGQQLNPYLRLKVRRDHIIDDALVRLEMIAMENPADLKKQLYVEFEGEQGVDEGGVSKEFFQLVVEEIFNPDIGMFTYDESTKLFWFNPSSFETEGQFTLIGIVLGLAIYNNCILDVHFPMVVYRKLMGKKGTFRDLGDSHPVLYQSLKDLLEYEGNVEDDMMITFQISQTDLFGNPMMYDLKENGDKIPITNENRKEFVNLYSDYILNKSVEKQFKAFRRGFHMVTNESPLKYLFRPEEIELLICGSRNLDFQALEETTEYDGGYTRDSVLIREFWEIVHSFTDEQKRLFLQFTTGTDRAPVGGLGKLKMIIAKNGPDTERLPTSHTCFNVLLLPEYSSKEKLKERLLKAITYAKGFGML
T2: itself; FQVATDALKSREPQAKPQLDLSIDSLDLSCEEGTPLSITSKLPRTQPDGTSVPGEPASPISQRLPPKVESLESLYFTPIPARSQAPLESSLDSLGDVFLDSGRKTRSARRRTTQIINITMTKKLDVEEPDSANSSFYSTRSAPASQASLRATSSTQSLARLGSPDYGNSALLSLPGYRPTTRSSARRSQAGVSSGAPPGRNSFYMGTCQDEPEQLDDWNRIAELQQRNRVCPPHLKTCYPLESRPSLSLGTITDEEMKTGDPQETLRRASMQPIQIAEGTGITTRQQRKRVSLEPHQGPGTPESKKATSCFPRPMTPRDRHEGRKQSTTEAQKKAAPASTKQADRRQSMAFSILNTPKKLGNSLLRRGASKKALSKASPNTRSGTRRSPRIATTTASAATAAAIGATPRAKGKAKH
T3: itself; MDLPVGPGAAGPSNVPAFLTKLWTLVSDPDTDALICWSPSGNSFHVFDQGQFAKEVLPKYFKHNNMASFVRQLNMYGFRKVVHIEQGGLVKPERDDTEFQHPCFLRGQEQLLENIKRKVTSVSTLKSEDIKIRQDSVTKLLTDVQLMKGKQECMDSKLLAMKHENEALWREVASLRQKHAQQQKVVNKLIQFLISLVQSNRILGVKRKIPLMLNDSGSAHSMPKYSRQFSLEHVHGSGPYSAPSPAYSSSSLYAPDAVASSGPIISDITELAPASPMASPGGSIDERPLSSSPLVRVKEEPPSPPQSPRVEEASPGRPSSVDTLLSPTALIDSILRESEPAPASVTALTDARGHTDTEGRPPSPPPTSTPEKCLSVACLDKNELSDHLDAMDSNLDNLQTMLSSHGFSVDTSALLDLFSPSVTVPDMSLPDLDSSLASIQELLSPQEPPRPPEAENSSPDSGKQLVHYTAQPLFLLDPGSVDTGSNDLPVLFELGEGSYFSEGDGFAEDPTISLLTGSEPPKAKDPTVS
B1: human desmoglein-1; sequence looked up; chain EWIKFAAACREGEDNSKRNPIAKIHSDCAANQQVTYRISGVGIDQPPYGIFVINQKTGEINITSIVDREVTPFFIIYCRALNSMGQDLERPLELRVRVLDINDNPPVFSMATFAGQIEENSNANTLVMILNATDADEPNNLNSKIAFKIIRQEPSDSPMFIINRNTGEIRTMNNFLDREQYGQYALAVRGSDRDGGADGMSAECECNIKILDVNDNIPYMEQSSYTIEIQENTLNSNLLEIRVIDLDEEFSANWMAVIFFISGNEGNWFEIEMNERTNVGILKVVKPLDYEAMQSLQLSIGVRNKAEFHHSIMSQYKLKASAISVTVLNVIEGPVFRPGSKTYVVTGNMGSNDKVGDFVATDLDTGRPSTTVRYVMGNNPADLLAVDSRTGKLTLKNKVTKEQYNMLGGKYQGTILSIDDNLQRTCTGTININIQSFGNDDRTNTEPNTKITTNTGRQESTSSTNYDTSTTSTDSSQVYSSEPGNGAKDLLSDNVHFGPAGIGLLIMGFLVLGLVPFLMICCDCGGAPRSAAGFEPVPECSDGAIHSWAVEGPQPEPRDITTVIPQIPPDNANIIECIDNSGVYTNEYGGREMQDLGGGERMTGFELTEGVKTSGMPEICQEYSGTLRRNSMRECREGGLNMNFMESYFCQKAYAYADEDEGRPSNDCLLIYDIEGVGSPAGSVGCCSFIGEDLDDSFLDTLGPKFKKLADISLGKESYPDLDPSWPPQSTEPVCLPQETEPVVSGHPPISPHFGTTTVISESTYPSGPGVLHPKPILDPLGYGNVTVTESYTTSDTLKPSVHVHDNRPASNVVVTERVVGPISGADLHGMLEMPDLRDGSNVIVTERVIAPSSSLPTSLTIHHPRESSNVVVTERVIQPTSGMIGSLSMHPELANAHNVIVTERVVSGAGVTGISGTTGISGGIGSSGLVGTSMGAGSGALSGAGISGGGIGLSSLGGTASIGHMRSSSDHHFNQTIGSASPSTARSRITKYSTVQYSK
B2: MIF (Homo sapiens, UniProt P14174); chain MPMFIVNTNVPRASVPDGFLSELTQQLAQATGKPPQYIAVHVVPDQLMAFGGSSEPCALCSLHSIGKIGGAQNRSYSKLLCGLLAERLRISPDRVYINYYDMNAANVGWNNSTFA
B3: Bet v 4 dimer (Betula, UniProt Q39419); chain MADDHPQDKAERERIFKRFDANGDGKISAAELGEALKTLGSITPDEVKHMMAEIDTDGDGFISFQEFTDFGRANRGLLKDVAKIF
B4: NUMA1 1700-2115 (Homo sapiens, UniProt Q14980); chain FQVATDALKSREPQAKPQLDLSIDSLDLSCEEGTPLSITSKLPRTQPDGTSVPGEPASPISQRLPPKVESLESLYFTPIPARSQAPLESSLDSLGDVFLDSGRKTRSARRRTTQIINITMTKKLDVEEPDSANSSFYSTRSAPASQASLRATSSTQSLARLGSPDYGNSALLSLPGYRPTTRSSARRSQAGVSSGAPPGRNSFYMGTCQDEPEQLDDWNRIAELQQRNRVCPPHLKTCYPLESRPSLSLGTITDEEMKTGDPQETLRRASMQPIQIAEGTGITTRQQRKRVSLEPHQGPGTPESKKATSCFPRPMTPRDRHEGRKQSTTEAQKKAAPASTKQADRRQSMAFSILNTPKKLGNSLLRRGASKKALSKASPNTRSGTRRSPRIATTTASAATAAAIGATPRAKGKAKH
B5: human hnRNP C; sequence looked up; chain ASNVTNKTDPRSMNSRVFIGNLNTLVVKKSDVEAIFSKYGKIVGCSVHKGFAFVQYVNERNARAAVAGEDGRMIAGQVLDINLAAEPKVNRGKAGVKRSAAEMYGSVTEHPSPSPLLSSSFDLDYDFQRDYYDRMYSYPARVPPPPPIARAVVPSKRQRVSGNTSRRGKSGFNSKSGQRGSSKSGKLKGDDLQAIKKELTQIKQKVDSLLENLEKIEKEQSKQAVEMKNDKSEEEQSSSSVKKDETNVKMESEGGADDSAEEGDLLDDDDNEDRGDDQLELIKDDEKEAEEGEDDRDSANGEDDS
Sequence of UniProt Q9Y6M1 (whole entry, looked up): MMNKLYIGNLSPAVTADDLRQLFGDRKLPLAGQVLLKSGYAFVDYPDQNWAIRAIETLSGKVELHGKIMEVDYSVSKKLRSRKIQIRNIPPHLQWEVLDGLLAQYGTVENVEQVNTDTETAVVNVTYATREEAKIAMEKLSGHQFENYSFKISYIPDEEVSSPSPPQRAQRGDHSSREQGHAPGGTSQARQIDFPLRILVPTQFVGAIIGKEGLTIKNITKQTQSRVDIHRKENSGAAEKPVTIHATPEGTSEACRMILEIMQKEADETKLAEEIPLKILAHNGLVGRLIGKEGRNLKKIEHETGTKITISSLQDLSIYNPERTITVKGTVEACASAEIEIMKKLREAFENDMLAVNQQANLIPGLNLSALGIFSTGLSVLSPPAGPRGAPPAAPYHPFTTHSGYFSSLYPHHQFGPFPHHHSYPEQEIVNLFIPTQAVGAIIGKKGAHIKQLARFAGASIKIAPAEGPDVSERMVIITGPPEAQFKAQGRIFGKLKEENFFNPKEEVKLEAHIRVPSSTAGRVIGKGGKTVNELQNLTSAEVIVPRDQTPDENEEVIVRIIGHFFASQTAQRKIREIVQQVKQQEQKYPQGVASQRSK
Sequence of UniProt P00847 (whole entry, looked up): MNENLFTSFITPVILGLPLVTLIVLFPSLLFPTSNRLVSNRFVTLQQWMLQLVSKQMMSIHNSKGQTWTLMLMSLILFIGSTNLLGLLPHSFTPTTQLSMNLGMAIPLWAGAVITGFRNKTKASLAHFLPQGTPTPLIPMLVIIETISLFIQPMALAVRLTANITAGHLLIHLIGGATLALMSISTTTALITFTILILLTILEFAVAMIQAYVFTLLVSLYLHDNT
Sequence of UniProt P13393 (whole entry, looked up): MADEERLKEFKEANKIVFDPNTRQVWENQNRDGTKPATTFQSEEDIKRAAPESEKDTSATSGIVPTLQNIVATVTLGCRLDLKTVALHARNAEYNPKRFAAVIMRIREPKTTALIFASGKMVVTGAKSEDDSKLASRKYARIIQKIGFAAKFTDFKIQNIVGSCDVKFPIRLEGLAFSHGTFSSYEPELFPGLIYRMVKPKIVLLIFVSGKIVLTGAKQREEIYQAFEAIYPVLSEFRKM
Sequence of UniProt P02649 (whole entry, looked up): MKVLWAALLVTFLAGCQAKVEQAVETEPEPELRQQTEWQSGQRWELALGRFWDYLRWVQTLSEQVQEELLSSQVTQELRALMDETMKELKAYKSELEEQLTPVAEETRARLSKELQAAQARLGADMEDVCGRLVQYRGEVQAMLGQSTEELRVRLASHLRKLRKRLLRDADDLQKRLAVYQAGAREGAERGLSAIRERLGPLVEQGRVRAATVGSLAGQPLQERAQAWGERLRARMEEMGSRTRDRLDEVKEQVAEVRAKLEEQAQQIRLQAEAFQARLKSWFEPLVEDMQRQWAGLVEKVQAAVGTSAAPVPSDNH

Substance | target or system | test | test system | setting | how to read | measurement | value
CENPF fragment (Homo sapiens) | itself | SEC-MALS | – | – | – | subunits per oligomer | 2
P2-RANTES fragment | itself | AUC | – | velocity sedimentation | – | subunits per oligomer | 2
LECA (Pisum sativum) | itself | SEC-SAXS | – | – | – | subunits per oligomer | 2
bioE (Elizabethkingia meningoseptica) | itself | mass photometry | – | – | – | subunits per oligomer | 2
CLTC/CLTA triskelion (Bos taurus) | itself | deep-etch electron microscopy | – | – | – | subunits per oligomer | 4
GCUUAUUUU (ssRNA) | U2AF2 | sequencing of bound RNA | RNA | motif only | – | Kd | 5.64 µM
P2RX3 fragment (Canis lupus) | itself | cryo-EM | – | – | – | subunits per oligomer | 3
UBE3A (Homo sapiens, UniProt Q05086) | T1, itself | mass photometry | – | – | – | subunits per oligomer | 3
sodN mature R47A (Streptomyces coelicolor) | itself | ESI-MS | – | denaturing conditions | – | subunits per oligomer | 6
CAMK2D D336C (Homo sapiens) | itself | X-ray crystallography | – | – | – | subunits per oligomer | 12
gene 82 (mycobacteriophage) | itself | SEC | – | – | – | subunits per oligomer | 3
CDKN2A (Homo sapiens, UniProt Q8N726) | itself | SEC-MALS | – | – | – | subunits per oligomer | 10
concanavalin A | itself | native MS | – | – | – | subunits per oligomer | 4
HerA (Paenibacillus sp.) | itself | AUC | – | – | – | subunits per oligomer | 6
popZ fragment (Caulobacter crescentus) | itself | mass photometry | – | 250 nM | – | subunits per oligomer | 6
B1 (human desmoglein-1) | PP6C (human) | co-immunoprecipitation, IP-MS | CYB5R4 knockout cells | concentration not given | reference: CYB5R4 knockout over parental | log2 fold change | 0.38
TCCTGAAGGAGCGCCTATAAAAGGTCCTATCGTCGTCAAGTCAATCGGTCC (dsDNA; blunt; 5'-amino-C6 primer) | SPT15 full length assumed (Saccharomyces cerevisiae, UniProt P13393) | EMSA | double-stranded DNA, one strand shown | – | – | Kd | 0.0042 ± 0.0016 µM
argC crTP domain plus ArgC (Paulinella chromatophora) | itself | SAXS | – | – | – | subunits per oligomer | 2
sodN mature E17A/R47A (Streptomyces coelicolor) | itself | ESI-MS | – | denaturing conditions | – | subunits per oligomer | 6
B2 (MIF) | itself | native MS | – | not purified | – | subunits per oligomer | 3
MXAN_1565 GAF-AAA+ domains (Myxococcus xanthus) | itself | cross-linking | – | – | – | subunits per oligomer | 2
Eco8 OLD nuclease (Escherichia coli) | itself | cryo-EM | – | – | – | subunits per oligomer | 4
ERF DNA-binding domain C72S (Homo sapiens) | itself | AUC | – | added: DNA | – | subunits per oligomer | 4

Substance | target or system | test | test system | setting | how to read | measurement | value
comFB (Thermoanaerobacter brockii) | itself | mass photometry | – | added: c-di-GMP 0.5 mM | – | subunits per oligomer | 2
cyanophycin synthetase 2 Q416A/R528G | itself | SEC | – | – | – | subunits per oligomer | 2
B3 (Bet v 4 dimer) | itself | SEC | – | – | – | subunits per oligomer | 2
B4 (NUMA1 1700-2115) | T2, itself | mass photometry | – | – | – | subunits per oligomer | > 2
ALD1 fragment (Toxoplasma gondii) | itself | SEC | – | – | – | subunits per oligomer | 2
clcA fragment C85A/H234C/I422A/L423A/I426A/L430A/L434A (Escherichia coli) | itself | SEC | – | – | – | subunits per oligomer | 2
ACAT1 fragment, pY407 (Homo sapiens) | itself | sucrose density ultracentrifugation | – | phosphorylated, wild type | – | subunits per oligomer | 4
HSF1 (Homo sapiens, UniProt Q00613) | T3, itself | cross-linking | PBMC | – | – | subunits per oligomer | 3
ATAT1 (Homo sapiens) | itself | mass photometry | – | – | – | subunits per oligomer | 2
Cas5 fragment Q38W (Moraxella) | itself | SEC-MALS | – | – | – | subunits per oligomer | 2
GCN2 HisRS-CTD (Chaetomium thermophilum) | itself | SEC-MALS | – | – | – | subunits per oligomer | 2
ALDH7A1 fragment R441C (Homo sapiens) | itself | AUC | – | added: NAD 1 mM | – | subunits per oligomer | 4
B5 (human hnRNP C) | CYB5R4 knockout human cells | PP4 interaction, 3xFLAG-PP4C IP-MS | – | concentration not given | reference: CYB5R4 KO over parental | log2 fold change | 0.49
IGF2BP2 (Homo sapiens, UniProt Q9Y6M1) | itself | mass photometry | – | – | – | subunits per oligomer | 2 and 4
UAUUCAUUU (ssRNA) | U2AF2 | sequencing of bound RNA | RNA | motif only | – | Kd | 3.18 µM
SUMO (Sulfolobus acidocaldarius) | itself | crystal structure | – | – | – | subunits per oligomer | 2
APOE apoE4 (Homo sapiens, UniProt P02649) | itself | AUC | – | 30 µM | – | subunits per oligomer | 4
Gl2 (Gossypium hirsutum) | itself | native gel electrophoresis | – | – | – | subunits per oligomer | 4
Maackia amurensis seed lectin (Maackia amurensis) | itself | SEC-MALS | – | – | – | subunits per oligomer | 4
aceF catalytic domain , homotrimer (Escherichia coli) | itself | AUC | – | – | – | subunits per oligomer | 3
NuMA fragment SpM alanine substitutions (Homo sapiens) | itself | mass photometry | – | – | – | subunits per oligomer | 2
PopZ del110-122 (Caulobacter crescentus) | itself | sedimentation velocity AUC | – | 25 °C, no MgCl2 | – | subunits per oligomer | 6
F1Fo-ATP synthase (Bos taurus, UniProt P00847) | itself | native gel, EMSA, SEC | – | – | – | subunits per oligomer | 2

Excerpt of the above:
Substance | target or system | test | test system | setting | how to read | measurement | value
TCCTGAAGGAGCGCCTATAAAAGGTCCTATCGTCGTCAAGTCAATCGGTCC (dsDNA; blunt; 5'-amino-C6 primer) | SPT15 full length assumed (Saccharomyces cerevisiae, UniProt P13393) | EMSA | double-stranded DNA, one strand shown | – | – | Kd | 0.0042 ± 0.0016 µM
argC crTP domain plus ArgC (Paulinella chromatophora) | itself | SAXS | – | – | – | subunits per oligomer | 2
sodN mature E17A/R47A (Streptomyces coelicolor) | itself | ESI-MS | – | denaturing conditions | – | subunits per oligomer | 6
B2 (MIF) | itself | native MS | – | not purified | – | subunits per oligomer | 3
